# Assay results from different studies.
# Parts stem from different laboratories: compare values within a part only. Changes are numbered by the printed parent chain.

# Study 1
# Target: Sal-like protein 4, full length isoform B (SALL4, Homo sapiens, UniProt Q9UJQ4-2, residues 1-616)
# Technique: universal PBM
# Molecule type: double-stranded DNA, one strand shown
# Sample: in vitro
# Concentration: not given
# Notes: 8-mer, flanks averaged, mean of replicates
# Direction: higher = stronger binding
Strand,E-score
ATAACCCC,0.0398
CTAGCGCC,-0.238
ATACCCTC,0.0169
CACAGCTG,-0.298
AATAGCCA,0.128
ATCACTTC,0.00938
CAGAAAAC,-0.0276
ACGCCATC,-0.205
CACATCTA,0.18
ATAAGGGG,0.0797
TTACGGAA,0.0618
CTAAAAAC,-0.0589
CCGGTATA,-0.0239
AACAGGTA,0.118
ATGTGGGA,0.0361
TCCGACAA,0.0669
GGGTCGAA,-0.168
GTTGGCCA,-0.297
GCGCGACA,-0.215
ACTGGATA,0.11
CGCCGCAG,-0.382
TCCTTACA,0.0783
ATCGAAAG,0.0871
AGACTAGC,-0.175
AAAGGTTG,-0.0914

# Study 2
# Target: CCND3, cyclin fold, Cln2 fusion (human)
# Technique: yeast growth competition, sequencing
# Sample: yeast
# Notes: weak parent motif
# Relative to: not given
# Direction: higher = stronger binding
# Starting sequence: REPIN1 docking peptide (human); QSFRGWVALVLHL; partner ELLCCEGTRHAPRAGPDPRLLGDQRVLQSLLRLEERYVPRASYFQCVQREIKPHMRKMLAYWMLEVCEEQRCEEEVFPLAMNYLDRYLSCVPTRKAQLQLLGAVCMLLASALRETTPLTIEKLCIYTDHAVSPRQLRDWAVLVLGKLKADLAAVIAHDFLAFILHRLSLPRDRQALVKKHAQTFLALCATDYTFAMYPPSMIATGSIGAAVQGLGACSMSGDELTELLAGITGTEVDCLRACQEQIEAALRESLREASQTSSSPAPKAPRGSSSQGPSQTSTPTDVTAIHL
Change,normalised enrichment score
V7A,0.515
Q1A,-0.388
G5A,0.117
L13A,-0.161
S2A,-0.0325
W6A,-0.356

# Study 3
# Target: RNA binding protein fox-1 homolog 2, RRM domain, GST-SBP tag (RBFOX2, Homo sapiens, UniProt O43251-10, residues 100-194)
# Technique: RNA Bind-n-Seq
# Molecule type: RNA
# Sample: in vitro
# Concentration: 365 nM
# Notes: natural RNA segment, single round, ends assumed
# Relative to: no-protein control
# Direction: higher = stronger binding
# All sequences stand within: GGGAGUUCUACAGUCCGACGAUC … UGGAAUUCUCGGGUGCCAA
# Target sequence (chain): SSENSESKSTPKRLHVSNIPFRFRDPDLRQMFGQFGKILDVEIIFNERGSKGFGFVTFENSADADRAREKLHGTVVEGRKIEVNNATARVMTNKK
Strand,RBNS enrichment (R)
GUAACUAGGUGUAAAAAUCAUGUGUUGCAGCUUUAUAGUUUUUAAAAUAUUUUAGAUAAUUCUUAAACUAUGAACCUUCUUAACAUCACUGUCUUGCCAGAUUACCGACA,0.418
UUUACUGAAAAAGCUAUUGGACUCUUGCUCUUUCUAGCUCUGAACUAAUAAAUGUCUUAUCACGCUGGCCAGAGAGUAGCUGUCUUUCAGCAAACACUGAGCACACUGUG,0.361
CCAGGGCAAUGACAGCCAUUCUUGUCUUAGGGAUUAUGGAUCGGGGUAUGAAGUGUGCACACGCAGCCCAACAACGGGCAGUGGUCUCUGUGCUCCUAGGCAUCCAGCAC,0.404
UGUCUGAGAGAGAGUGCCACACCUUGUAGGGACUGGCAGGAAACAGGUCAGGGCCUUCCCCAGAGCCAAGACAAUGCAGAGGAGGGCUCCUUAACUCAGACCAGGGCCAU,0.214
AGCUCGUCCCUUGGACUAGAGUCUCCACAGUUCCAGUAAAAUUCUGCGGUGGGCUGAUGAGCUGCUUGCAUUUCUGUGACAUUUCCAGAUAUGAUUCUCAGUGGGAUUUU,0.389
ACAUUUUAUUAUGUAGCAAGAUACAUGGUGAUUUUUUUUUUUUUCAUUUAGCCUGAUUUUCCAACGUCAUUGGUGACAGGCCAAGGCCACUAUGUUAUUUCCUUUGUUCU,0.576
GUGUGCAGGCAUCGCAGAUGGGGGUUCUUUCAGUUCAAAAGUGAGAUGUCUGGAGAUCAUAUUUUUUUAUACAGGUAUUUCAAUUAAAAUGUUUUUGUACAUAGUGGAUA,0.677
GCUGGUGCUCAGGAAGAGCUAGUGCCUUAGGUGGGGGAAGGCAGGACUCACGACUGAGAGAGAGAGGAGGGGGAUAUGACCACCCUGCCCCAUCUGCAGGAGCCUGAAGA,0.499

# Study 4
# Target: Histone acetyltransferase KAT6A, winged helix 1, GST fusion (KAT6A, Homo sapiens, UniProt Q92794, residues 1-85)
# Technique: protein binding microarray
# Molecule type: double-stranded DNA, one strand shown
# Sample: in vitro
# Concentration: not given
# Notes: 8-mer, flanks averaged, mean of 2 arrays, mostly near background
# Relative to: not given
# Direction: higher = stronger binding
# Target sequence (chain): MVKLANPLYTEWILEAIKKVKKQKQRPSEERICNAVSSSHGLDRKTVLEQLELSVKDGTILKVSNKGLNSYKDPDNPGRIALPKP
Strand,E-score
ACGCGATA,0.204
AAACTAAC,-0.106
ACTACTTA,-0.0382
GACTTGAA,-0.224
CCCCGGAG,0.05
ACTGTTCC,-0.0519
CATGCCCC,-0.0173
CTGACCAG,0.0737
CACTGAAA,-0.0736
ACGCGCCA,0.217
CGATCGGC,0.333
CGCATTTA,0.0666
CGTTAAAG,0.044
CAGAGGGG,-0.238
AGGTCCGA,0.0276
CCGTTACA,0.144
CGGTAATA,0.219
CAATTGCC,-0.0334
CGCCGCAA,0.386
ACAAGCTA,-0.211
CGTTATGA,-0.0252
ACTGCCGA,0.117
CTCGATCC,-0.175
CGACGAGC,0.0225
